Results of several laboratories.
Each numbered part is a random draw from the data of one study; scales do not carry over between parts.

Series 1
Target: Sal-like protein 4, full length isoform A (SALL4, Homo sapiens, UniProt Q9UJQ4, residues 1-1053)
Sequence of UniProt Q9UJQ4 (whole entry, looked up): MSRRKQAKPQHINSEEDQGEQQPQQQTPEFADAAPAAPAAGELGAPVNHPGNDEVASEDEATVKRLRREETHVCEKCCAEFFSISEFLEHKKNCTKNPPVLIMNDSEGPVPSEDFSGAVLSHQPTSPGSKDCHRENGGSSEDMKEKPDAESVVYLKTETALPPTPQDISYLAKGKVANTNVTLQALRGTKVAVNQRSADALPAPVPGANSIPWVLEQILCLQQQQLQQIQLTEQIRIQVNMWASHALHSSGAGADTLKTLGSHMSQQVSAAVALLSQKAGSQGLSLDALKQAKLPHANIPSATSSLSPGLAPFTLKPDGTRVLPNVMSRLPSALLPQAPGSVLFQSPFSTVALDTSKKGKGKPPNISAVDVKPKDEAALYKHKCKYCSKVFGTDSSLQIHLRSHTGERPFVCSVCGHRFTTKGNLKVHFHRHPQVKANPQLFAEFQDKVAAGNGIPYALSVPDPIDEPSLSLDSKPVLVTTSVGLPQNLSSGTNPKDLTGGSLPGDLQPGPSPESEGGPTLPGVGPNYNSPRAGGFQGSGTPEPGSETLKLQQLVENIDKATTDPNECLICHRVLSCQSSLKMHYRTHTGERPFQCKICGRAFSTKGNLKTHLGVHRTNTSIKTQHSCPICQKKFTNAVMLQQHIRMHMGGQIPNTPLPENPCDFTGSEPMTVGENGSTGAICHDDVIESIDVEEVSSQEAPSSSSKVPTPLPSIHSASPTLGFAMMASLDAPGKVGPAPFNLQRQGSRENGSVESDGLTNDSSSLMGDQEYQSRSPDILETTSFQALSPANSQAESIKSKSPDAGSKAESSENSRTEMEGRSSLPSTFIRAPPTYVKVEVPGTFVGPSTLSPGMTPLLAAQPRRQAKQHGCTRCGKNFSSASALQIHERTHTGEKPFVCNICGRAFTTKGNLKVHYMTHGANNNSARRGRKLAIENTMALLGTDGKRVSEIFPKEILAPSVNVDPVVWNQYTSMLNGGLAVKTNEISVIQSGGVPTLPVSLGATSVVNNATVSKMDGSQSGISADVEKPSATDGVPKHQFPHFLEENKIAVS
Method: universal PBM
Molecule type: double-stranded DNA, one strand shown
Sample: in vitro
Concentration: 600 nM
Setting: 8-mer, flanks averaged, mean of replicates
Reading: higher = stronger binding
Oligonucleotide | E-score
CTCTCGTC | -0.0914
CAAAGTAG | 0.102
CGGGTCCA | -0.346
ACGTAGCC | -0.217
GACCGGCC | -0.38
AAGACGAC | 0.0201
CACGGCCG | -0.147
AGTTGTAT | 0.194

Series 2
Target: Replicase polyprotein 1ab, nsp13 helicase (rep, Severe acute respiratory syndrome coronavirus 2, UniProt P0DTD1)
Action: inhibitor
Concentration: 20 µM
SMILES | inhibition [%]
C=CC[C@@H]1/C=C(\C)C[C@H](C)C[C@H](OC)[C@H]2O[C@@](O)(C(=O)C(=O)N3CCCC[C@H]3C(=O)O[C@H](/C(C)=C/[C@@H]3CC[C@@H](O)[C@H](OC)C3)[C@H](C)[C@@H](O)CC1=O)[C@H](C)C[C@@H]2OC | 9.43
COc1ccc2nc(SCc3ncc(C)c(OC)c3C)[nH]c2c1 | -2.33
CCc1nn(CCO)c(CC)c1Oc1cc(C#N)cc(C#N)c1 | 5.16
CCCCN(CCCC)C(=O)CN1C[C@H](c2ccc3c(c2)OCO3)[C@@H](C(=O)O)[C@@H]1c1ccc(OC)cc1 | 13.8
Brc1ccc(NC2C3CC4CC(C3)CC2C4)cc1 (centres unmarked) | 0.45
CC(=O)N(CC(C)C(=O)O)c1c(I)cc(I)c(N)c1I (centres unmarked) | 6.93
c1ccc(CN2CCC3(CCc4ccccc43)CC2)cc1 | -3.36
O=c1ncnc2n([C@H]3O[C@@H](CO)[C@H](O)[C@@H]3O)[nH]cc1-2 (stereo in doubt) | 9.86
CNCC/C=C/c1cccnc1 | 1.77
C[C@]12CC[C@H](O)C[C@H]1CC[C@@H]1[C@@H]2C[C@@H](O)[C@]2(C)[C@@H](C3=CC(=O)OC3)CC[C@]12O | 3.37
C[C@@H]1O[C@@H](OC[C@H]2O[C@@H](Oc3c(-c4ccc(O)c(O)c4)oc4cc(O)cc(O)c4c3=O)[C@H](O)[C@@H](O)[C@@H]2O)[C@H](O)[C@H](O)[C@H]1O | 4.98
C=CCN1CC[C@]23c4c5ccc(O)c4O[C@H]2/C(=N/NC(=O)c2ccccc2)CC[C@@]3(O)[C@H]1C5 | 6.24
Cn1cccc1/C=C1\C(=O)NC(=O)c2ccccc21 | 10.3
CC(C)C[C@H](NC(=O)CNC(=O)c1cc(Cl)ccc1Cl)B1OC(=O)C(CC(=O)O)(CC(=O)O)O1 | 1.49
C[C@](N)(Cc1ccc(O)cc1)C(=O)O | -2.81

Series 3
Target: RNA binding protein fox-1 homolog 2, RRM domain, GST-SBP tag (RBFOX2, Homo sapiens, UniProt O43251-10, residues 100-194)
Method: RNA Bind-n-Seq
Molecule type: RNA
Sample: in vitro
Concentration: 365 nM
Setting: natural RNA segment, single round, ends assumed
Baseline: no-protein control
Reading: higher = stronger binding
Constant ends, left off below: GGGAGUUCUACAGUCCGACGAUC … UGGAAUUCUCGGGUGCCAA
Construct (chain): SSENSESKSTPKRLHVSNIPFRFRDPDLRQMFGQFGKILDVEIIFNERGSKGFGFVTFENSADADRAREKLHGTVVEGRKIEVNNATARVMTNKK
Oligonucleotide | RBNS enrichment (R)
AGUCAGGAGUCAAACUGCUGCCUUUAAAAAAACACACAAAAAGCUGAUUCAGUUCAAAAUUAAUGCAAAUCUUUCAAAACUGGGUUUCUGAUACUUGUGGAUGUUUUUCU | 0.284
UUUUGUUUAUAGGAACUUGUAGGGCUCAUUUUGGUUUCAUUGAAACAGUAUCUAAUUAUAAAUUAGCUGUAGAUAUCAGGUGCUUCUGAUGAAGUGAAAAUGUAUAUCUG | 0.419
CUCUGUACACAGCCCCGUGAACCCUGAGGAGUGGAGUCAUACACGAAGGGCGUGUGGCCAUCGUGUCAGCAGAGAGAGUCUCUGUACACAGCCCCGUGAACCCUGAGGAG | 0.354
CCAUCCUUCCUACAGUUAGAGCCCCAGUAGUGCGAGAAGGCCCCAUAUAUGGCAGCAUUCAGCUCUCACCCAACACUUGUGCUGGGCUUCCCUUCAGCAGCCUCCCAGAC | 0.519
UUGAGCUCCACCUCCUUUCCAAGUGAGCACUCAGUGUUGAAUCACAGUUACAACCCACUGGGGCUGGUGGGAGAUGCGUUGUAUGGGACUGGAAGCAAGAGGUUCAUUCA | 0.757
UAAAAAAAUUCUCCAACAAAAAUACUUGUUGACUUGAUGUUUUAUCACUUCUCUAAGUAAGGUUGAAAUAUCCUUAUUGUAGCUACUGUUUUUAAUGUAAAGGUUAAACU | 0.435
UGAGGAACUAUGUAAGUUCAGUGUCCAAGCAUUUGACUGACAUUUGUGCAGAGUUAGGUUCCAUCUCCAGCAUCACGCACGGGUCUUGUGAACACCGACAUCUUCAGUUU | 1.52
GUAUCUCAAGAUAUUCAGGUGGCCAGAAGAGCUUGUCAGCAAGAGGAGGACAGAAUUCUCCCAGCGUUAACACAAAAUCCAUGGGCAGUAUGAUGGCAGGUCCUCUGUUG | 0.488

Other studies, line by line
Structure (SMILES) | cell line | concentration | time | baseline | quantity | value
C=C(c1ccc(C(=O)O)cc1)c1cc2c(cc1C)C(C)(C)CCC2(C)C | HEK-293T/ACE2 | concentration not given | 16 (unit not given) | vehicle | viability | 105%

A few entries again (series 3):
Oligonucleotide | RBNS enrichment (R)
AGUCAGGAGUCAAACUGCUGCCUUUAAAAAAACACACAAAAAGCUGAUUCAGUUCAAAAUUAAUGCAAAUCUUUCAAAACUGGGUUUCUGAUACUUGUGGAUGUUUUUCU | 0.284
UUUUGUUUAUAGGAACUUGUAGGGCUCAUUUUGGUUUCAUUGAAACAGUAUCUAAUUAUAAAUUAGCUGUAGAUAUCAGGUGCUUCUGAUGAAGUGAAAAUGUAUAUCUG | 0.419
CUCUGUACACAGCCCCGUGAACCCUGAGGAGUGGAGUCAUACACGAAGGGCGUGUGGCCAUCGUGUCAGCAGAGAGAGUCUCUGUACACAGCCCCGUGAACCCUGAGGAG | 0.354
